Results from different studies.
Protocols differ between the studies behind these lines. Values joined by “and” are separate records of one study, mostly repeats; a detail may differ.
Target: Macrophage colony-stimulating factor 1 receptor (CSF1R, Homo sapiens, UniProt P07333)
UniProt P07333, sequence (whole entry, looked up): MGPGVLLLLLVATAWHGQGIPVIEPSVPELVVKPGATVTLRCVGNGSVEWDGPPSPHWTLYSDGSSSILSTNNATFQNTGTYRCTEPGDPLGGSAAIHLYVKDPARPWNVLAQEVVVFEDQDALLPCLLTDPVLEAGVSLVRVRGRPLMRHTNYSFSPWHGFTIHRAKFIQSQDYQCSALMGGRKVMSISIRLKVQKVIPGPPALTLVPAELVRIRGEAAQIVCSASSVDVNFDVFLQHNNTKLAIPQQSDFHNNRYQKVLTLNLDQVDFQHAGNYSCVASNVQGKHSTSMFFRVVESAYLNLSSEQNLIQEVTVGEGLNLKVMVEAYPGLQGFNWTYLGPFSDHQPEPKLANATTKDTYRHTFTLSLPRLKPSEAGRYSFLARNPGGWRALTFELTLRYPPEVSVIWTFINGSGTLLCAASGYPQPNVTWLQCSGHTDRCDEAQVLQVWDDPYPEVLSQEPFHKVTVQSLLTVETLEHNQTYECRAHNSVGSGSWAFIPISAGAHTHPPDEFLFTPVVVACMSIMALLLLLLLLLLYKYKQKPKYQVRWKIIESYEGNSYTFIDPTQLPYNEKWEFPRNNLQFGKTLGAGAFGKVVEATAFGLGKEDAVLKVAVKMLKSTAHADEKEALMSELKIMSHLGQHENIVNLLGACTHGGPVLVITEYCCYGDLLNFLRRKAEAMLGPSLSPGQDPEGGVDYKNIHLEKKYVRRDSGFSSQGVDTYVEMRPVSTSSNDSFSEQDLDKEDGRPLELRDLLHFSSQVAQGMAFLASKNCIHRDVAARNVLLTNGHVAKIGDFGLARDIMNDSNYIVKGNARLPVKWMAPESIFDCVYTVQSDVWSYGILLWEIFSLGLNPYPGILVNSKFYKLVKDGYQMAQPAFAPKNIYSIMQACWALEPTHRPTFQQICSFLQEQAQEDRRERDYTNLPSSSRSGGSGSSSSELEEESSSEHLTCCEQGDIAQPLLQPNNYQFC

Cc1cccc(O[C@H]2CCC[C@@H](C(C)CNCc3ccncc3)C2)c1 (relative stereo)
inhibition (cell-free assay; 1 µM): 4%

COCC12C(=O)NC3C4(C(OC)CC1O)C1CC5(O)C(OC)C(O)C(OC(C)=O)(C1C5OC(=O)c1ccccc1)C3(O)C(OC)C24 (stereo not drawn)
remaining activity (kinase activity, inhibitor, ProQinase kinase profiling; 25 µM; reference: control): 112% and 116%

NC(=O)C[C@H]1CCc2sc3ncnc(O[C@H]4CC[C@H](N5CCOCC5)CC4)c3c21
inhibition (enzyme activity, inhibitor; 10 µM): 1%

Cc1[nH]nc2c1N=C(c1ccccc1Cl)c1cnc(N3CCOCC3)cc1N2
inhibition (enzyme activity, inhibitor; 0.5 µM): > 99%

CN1CCN(Cc2ccc(-c3ccc(CO[C@H]4CCC[C@@H]4NC(=O)c4cc(-c5cnn(C)c5)cnc4N)cc3)cc2)CC1
inhibition (enzyme activity, inhibitor; 0.1 µM): 4%

C=CC(=O)Nc1cccc(-c2cnc3[nH]cc(C(=O)NC(C)(C)C)c3n2)c1
inhibition (enzyme activity, inhibitor; 0.1 µM): 37%

C[C@H]1CN(C(=O)c2cn(-c3ccnc(N)n3)c3cc(C#CC4(O)CCCCC4)ccc23)CCN1
inhibition (enzyme activity, inhibitor, FRET; 1 µM): -3%

COc1ccc(NC(=O)Nc2ccc3c(c2)C(=O)N(C(C)CO)CC(C)C(CN(C)Cc2ccc4c(c2)OCO4)O3)cc1 (stereo not drawn)
remaining activity (kinase activity, KinaseProfiler; 0.03 µM, species human; reference: control): 95%

O=C(Cc1ccc(OCc2ccccc2)cc1)NC1(C(=O)O)CCN(C(=O)c2ccc(-c3cccc(Cl)c3)cc2)CC1
activity vs control (enzyme activity, inhibitor; 10 µM): 81%

O=c1c(-c2ccc(Cl)c(CN3CCOCC3)c2)coc2cc(O)ccc12
remaining activity (enzyme activity, inhibitor; 1 µM): 93%

COc1c(OCCCN2CCOCC2)ccc2c1N=C(NC(=O)c1cnc(N)nc1)N1CCN=C21
remaining activity (kinase activity, inhibitor; 1 µM; reference: untreated control): 123%

CNC(=O)C[C@H](Cc1ccc(C#N)cc1)NC(=O)c1cc(-c2ccc(CN[C@H](C)c3ccc(C)cc3)o2)ccc1Cl
activity vs control (enzyme activity, inhibitor; 1 µM): 114%

Excerpt of the above:
COc1c(OCCCN2CCOCC2)ccc2c1N=C(NC(=O)c1cnc(N)nc1)N1CCN=C21
remaining activity (kinase activity, inhibitor; 1 µM; reference: untreated control): 123%

CNC(=O)C[C@H](Cc1ccc(C#N)cc1)NC(=O)c1cc(-c2ccc(CN[C@H](C)c3ccc(C)cc3)o2)ccc1Cl
activity vs control (enzyme activity, inhibitor; 1 µM): 114%
